Results from different studies.
Each line is one published result; not all experiments were run side by side. “And” joins repeats or separate records; there may be more than shown. ± gives the spread as reported.
IDO1: Indoleamine 2,3-dioxygenase 1 (IDO1, Homo sapiens, UniProt P14902)
SYK with FCER1G: Tyrosine-protein kinase SYK, with FCER1G (SYK, Homo sapiens, UniProt P43405)
ESR1: Estrogen receptor (ESR1, Homo sapiens, UniProt P03372)
FGFR1: Fibroblast growth factor receptor 1 (FGFR1, Homo sapiens, UniProt P11362)

The chains behind the UniProt entries cited, without tags or fusion partners. Where a name states a change or a piece, a line headed by the entry shows the natural chain unless it says otherwise. Residues count along the entry.
UniProt P03372, whole entry: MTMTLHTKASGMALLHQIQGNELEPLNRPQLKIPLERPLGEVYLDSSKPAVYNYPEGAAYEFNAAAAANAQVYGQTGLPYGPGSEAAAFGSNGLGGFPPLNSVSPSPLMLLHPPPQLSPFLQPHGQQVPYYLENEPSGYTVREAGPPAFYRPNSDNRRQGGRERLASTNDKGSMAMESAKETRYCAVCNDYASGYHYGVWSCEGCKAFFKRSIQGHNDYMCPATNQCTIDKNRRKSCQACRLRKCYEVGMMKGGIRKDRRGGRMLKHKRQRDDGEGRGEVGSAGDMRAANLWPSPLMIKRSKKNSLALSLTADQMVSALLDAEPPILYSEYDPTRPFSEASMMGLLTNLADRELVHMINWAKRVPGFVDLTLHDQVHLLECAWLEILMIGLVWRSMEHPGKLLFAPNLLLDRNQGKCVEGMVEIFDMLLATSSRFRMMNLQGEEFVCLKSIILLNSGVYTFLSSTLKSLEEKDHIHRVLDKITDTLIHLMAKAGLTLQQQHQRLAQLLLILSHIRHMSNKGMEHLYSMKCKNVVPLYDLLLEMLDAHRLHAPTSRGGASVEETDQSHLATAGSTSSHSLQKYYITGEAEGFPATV
UniProt Q6P5Z2, whole entry: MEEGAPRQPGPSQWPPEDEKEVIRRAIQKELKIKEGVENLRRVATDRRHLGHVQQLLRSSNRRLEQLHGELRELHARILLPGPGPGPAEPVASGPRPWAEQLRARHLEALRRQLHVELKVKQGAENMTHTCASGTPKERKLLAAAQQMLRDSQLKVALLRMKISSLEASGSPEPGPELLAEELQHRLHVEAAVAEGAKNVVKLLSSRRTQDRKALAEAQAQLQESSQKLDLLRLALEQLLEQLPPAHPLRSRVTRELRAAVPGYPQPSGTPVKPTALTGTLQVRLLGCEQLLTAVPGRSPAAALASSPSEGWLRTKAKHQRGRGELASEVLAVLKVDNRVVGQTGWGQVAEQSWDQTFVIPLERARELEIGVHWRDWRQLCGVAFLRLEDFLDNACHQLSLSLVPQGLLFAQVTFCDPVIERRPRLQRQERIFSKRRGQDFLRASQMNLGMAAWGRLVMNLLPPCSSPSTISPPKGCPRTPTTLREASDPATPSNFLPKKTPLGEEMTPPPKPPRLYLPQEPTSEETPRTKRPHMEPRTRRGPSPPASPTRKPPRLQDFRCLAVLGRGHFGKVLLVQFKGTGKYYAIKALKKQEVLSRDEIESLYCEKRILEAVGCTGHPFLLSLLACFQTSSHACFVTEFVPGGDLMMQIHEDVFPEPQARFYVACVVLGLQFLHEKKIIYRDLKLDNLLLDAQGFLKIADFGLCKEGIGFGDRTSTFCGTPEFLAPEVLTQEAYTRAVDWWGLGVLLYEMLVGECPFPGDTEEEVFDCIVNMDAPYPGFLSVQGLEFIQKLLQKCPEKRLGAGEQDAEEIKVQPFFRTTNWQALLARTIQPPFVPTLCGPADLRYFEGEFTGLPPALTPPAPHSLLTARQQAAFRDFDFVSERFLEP
UniProt P31421, 19-872 limits assumed: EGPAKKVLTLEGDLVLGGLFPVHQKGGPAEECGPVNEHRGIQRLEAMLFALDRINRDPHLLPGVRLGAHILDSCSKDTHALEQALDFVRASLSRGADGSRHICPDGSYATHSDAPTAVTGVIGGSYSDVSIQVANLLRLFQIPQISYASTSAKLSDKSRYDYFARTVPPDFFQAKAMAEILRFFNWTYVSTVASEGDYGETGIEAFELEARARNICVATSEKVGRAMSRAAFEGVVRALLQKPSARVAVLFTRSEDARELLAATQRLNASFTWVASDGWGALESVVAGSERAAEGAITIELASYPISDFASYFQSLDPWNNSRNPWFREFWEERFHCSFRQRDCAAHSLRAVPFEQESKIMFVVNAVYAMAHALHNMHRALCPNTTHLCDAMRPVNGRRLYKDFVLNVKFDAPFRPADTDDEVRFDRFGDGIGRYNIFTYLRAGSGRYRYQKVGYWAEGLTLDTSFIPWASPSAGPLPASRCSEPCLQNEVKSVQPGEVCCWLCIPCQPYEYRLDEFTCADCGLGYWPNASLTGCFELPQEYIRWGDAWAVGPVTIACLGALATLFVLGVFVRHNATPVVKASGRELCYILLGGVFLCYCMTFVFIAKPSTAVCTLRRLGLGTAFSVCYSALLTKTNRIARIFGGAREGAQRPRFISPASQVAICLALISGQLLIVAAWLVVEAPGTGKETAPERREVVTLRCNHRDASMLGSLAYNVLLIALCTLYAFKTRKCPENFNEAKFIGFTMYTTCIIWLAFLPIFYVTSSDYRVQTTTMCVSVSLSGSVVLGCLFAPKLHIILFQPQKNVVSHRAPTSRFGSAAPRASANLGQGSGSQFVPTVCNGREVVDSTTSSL
UniProt O00311, whole entry: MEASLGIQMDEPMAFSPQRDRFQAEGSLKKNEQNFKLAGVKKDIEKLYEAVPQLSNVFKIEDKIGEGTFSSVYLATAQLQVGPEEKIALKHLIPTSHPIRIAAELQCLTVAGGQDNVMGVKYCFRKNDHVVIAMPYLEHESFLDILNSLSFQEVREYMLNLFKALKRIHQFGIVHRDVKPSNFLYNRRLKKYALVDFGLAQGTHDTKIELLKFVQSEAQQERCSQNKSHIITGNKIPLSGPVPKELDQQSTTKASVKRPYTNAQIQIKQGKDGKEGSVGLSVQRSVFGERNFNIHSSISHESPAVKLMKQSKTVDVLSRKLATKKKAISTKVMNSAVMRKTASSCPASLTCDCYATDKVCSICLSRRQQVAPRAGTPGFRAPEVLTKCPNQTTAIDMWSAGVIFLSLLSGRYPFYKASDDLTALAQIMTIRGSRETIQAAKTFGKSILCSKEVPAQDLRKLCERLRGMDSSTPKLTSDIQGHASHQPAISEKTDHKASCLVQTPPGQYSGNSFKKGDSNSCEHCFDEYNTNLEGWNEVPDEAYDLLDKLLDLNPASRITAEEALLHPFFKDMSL
UniProt P29466, whole entry, looked up: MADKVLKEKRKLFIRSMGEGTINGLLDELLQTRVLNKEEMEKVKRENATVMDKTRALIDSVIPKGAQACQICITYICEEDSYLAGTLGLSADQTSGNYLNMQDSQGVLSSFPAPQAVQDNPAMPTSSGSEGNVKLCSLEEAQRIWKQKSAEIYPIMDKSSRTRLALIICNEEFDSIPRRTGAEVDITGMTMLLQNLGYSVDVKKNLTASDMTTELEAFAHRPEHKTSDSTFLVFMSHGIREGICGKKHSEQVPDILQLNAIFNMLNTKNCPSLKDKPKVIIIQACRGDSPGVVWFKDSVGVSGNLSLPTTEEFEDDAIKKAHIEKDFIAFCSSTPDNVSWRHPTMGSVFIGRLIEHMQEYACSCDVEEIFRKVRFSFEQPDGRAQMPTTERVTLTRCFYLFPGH
UniProt P05067, 672-713 limits assumed: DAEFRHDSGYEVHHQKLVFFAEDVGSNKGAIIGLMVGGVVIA
UniProt P40306, whole entry, looked up: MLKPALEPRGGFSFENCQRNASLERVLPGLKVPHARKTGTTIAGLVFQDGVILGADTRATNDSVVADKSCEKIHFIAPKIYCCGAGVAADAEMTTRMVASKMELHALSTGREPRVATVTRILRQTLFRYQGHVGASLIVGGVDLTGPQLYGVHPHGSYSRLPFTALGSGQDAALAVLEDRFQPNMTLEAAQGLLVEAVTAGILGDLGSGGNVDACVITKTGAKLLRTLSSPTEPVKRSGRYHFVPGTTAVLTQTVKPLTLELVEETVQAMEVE
UniProt P49720, whole entry, looked up: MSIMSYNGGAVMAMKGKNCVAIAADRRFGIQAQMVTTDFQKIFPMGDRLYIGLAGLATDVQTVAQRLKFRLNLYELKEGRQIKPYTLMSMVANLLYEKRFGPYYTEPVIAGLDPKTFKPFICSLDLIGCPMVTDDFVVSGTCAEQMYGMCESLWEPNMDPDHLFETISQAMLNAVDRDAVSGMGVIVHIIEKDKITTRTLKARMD
UniProt P31424, 21-1203 limits assumed: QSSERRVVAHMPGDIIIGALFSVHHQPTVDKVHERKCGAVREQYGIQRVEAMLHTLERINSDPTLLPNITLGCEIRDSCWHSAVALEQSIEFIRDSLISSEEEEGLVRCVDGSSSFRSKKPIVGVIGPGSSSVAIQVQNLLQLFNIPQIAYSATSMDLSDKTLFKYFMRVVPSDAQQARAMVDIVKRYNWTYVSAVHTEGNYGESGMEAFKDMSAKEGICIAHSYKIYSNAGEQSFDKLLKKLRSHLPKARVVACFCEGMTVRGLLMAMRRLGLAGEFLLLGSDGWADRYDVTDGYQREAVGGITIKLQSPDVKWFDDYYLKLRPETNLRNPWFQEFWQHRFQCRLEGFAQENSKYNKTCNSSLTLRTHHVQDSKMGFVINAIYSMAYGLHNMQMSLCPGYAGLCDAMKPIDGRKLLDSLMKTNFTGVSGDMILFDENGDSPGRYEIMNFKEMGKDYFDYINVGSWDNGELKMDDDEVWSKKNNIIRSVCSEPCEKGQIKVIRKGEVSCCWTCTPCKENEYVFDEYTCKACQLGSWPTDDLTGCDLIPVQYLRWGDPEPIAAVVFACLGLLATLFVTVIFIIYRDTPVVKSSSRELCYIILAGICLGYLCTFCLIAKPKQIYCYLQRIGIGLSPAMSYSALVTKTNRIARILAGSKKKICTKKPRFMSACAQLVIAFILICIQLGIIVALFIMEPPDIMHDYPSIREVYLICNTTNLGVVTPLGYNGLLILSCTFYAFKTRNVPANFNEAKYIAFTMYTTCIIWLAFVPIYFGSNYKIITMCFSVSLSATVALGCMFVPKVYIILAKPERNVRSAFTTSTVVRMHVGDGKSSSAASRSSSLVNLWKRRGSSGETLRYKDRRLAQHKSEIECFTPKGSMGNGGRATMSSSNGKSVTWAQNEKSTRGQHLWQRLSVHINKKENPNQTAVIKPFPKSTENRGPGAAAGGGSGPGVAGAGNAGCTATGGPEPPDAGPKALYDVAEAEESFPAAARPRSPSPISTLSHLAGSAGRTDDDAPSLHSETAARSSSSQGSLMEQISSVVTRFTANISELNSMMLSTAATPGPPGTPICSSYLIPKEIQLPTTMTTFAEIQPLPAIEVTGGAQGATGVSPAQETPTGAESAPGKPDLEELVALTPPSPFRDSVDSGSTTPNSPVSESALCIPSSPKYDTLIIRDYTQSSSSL
UniProt Q9BV23, whole entry: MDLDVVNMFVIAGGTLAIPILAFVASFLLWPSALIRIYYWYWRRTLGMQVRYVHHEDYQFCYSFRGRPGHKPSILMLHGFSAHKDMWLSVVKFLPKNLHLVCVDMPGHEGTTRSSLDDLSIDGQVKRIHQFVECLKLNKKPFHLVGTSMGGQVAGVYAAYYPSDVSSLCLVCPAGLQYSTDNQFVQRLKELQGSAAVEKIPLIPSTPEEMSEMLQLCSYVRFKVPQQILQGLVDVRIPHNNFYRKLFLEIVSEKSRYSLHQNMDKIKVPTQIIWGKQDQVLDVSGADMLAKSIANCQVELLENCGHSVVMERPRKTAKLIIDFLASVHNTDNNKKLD
UniProt P31749, whole entry: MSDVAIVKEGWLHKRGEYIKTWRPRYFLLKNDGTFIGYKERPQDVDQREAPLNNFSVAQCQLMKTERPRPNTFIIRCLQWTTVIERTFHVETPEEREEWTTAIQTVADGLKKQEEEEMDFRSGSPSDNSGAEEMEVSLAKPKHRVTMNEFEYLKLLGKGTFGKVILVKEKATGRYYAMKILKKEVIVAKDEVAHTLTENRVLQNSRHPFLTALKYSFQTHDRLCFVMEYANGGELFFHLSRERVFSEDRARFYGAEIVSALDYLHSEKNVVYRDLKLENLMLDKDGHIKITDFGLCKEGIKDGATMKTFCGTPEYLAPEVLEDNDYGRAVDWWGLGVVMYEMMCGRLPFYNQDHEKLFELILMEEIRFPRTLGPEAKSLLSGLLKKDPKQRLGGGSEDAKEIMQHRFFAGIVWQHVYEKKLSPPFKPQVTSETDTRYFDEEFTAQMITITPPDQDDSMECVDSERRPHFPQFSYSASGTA
UniProt O14965, whole entry: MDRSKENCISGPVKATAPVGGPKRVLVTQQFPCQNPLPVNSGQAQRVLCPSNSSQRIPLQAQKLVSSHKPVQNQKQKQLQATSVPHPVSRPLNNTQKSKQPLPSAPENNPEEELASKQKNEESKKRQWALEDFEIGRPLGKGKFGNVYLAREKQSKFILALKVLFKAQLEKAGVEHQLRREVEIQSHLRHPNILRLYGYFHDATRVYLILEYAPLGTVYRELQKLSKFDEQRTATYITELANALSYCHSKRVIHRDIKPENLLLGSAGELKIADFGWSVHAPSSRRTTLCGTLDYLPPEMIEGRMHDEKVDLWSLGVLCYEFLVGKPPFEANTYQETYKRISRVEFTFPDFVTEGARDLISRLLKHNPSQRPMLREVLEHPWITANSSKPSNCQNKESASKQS
UniProt O75351, 123-444 D135C limits assumed: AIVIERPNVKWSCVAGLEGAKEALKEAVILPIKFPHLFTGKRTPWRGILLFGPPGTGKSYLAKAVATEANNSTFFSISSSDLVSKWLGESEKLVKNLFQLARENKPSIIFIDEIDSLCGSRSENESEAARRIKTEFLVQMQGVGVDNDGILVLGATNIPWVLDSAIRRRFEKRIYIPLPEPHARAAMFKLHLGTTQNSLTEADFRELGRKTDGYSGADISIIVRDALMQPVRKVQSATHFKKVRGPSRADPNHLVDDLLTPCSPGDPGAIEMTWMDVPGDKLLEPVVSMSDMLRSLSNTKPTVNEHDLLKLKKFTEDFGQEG

SMILES = COc1cc([C@@H]2c3cc4c(cc3C=C(C=O)[C@H]2C(=O)OCc2ccc(CBr)cc2)OCO4)cc(OC)c1OC; target = Tubulin alpha/beta heterodimer (Leishmania infantum, UniProt A0A381MCS3+A4HTR0); test = tubulin polymerization, inhibitor; conditions = 37 °C, together with: tubulin 1.2 mg/mL; IC50 = 2 µM and 2.02 µM
SMILES = CC(=O)Nc1ccc(Br)cc1-c1nc2ccccc2[nH]c1=O; target = Protein diaphanous homolog 1, FH2 domain (Diaph1, Mus musculus, UniProt O08808); test = actin assembly, inhibitor, pyrene-actin polymerization; IC50 = > 50 µM
SMILES = S=c1[nH]c2ccccc2s1; target = CA2 (Homo sapiens, UniProt P00918); test = inhibitor; IC50 = 68.3 ± 10.7 µM
SMILES = COc1cc(Nc2ccnc3cc(Br)ccc23)cc(OC)c1OC; target = PKN3 (Homo sapiens, UniProt Q6P5Z2); test = target engagement, NanoBRET; test system = HEK293; IC50 = 2.7 µM
SMILES = Nc1nc2c(ncn2COCCNC(=O)CCCCNC(=O)c2cc3cc(Br)ccc3c(Br)c2O)c(=O)[nH]1; target = SAMHD1 (Homo sapiens, UniProt Q9Y3Z3); test = ssDNA binding, fluorescence anisotropy; conditions = 1 µM protein, together with: FAM-labelled 32-mer ssDNA probe; IC50 = ~5 µM
SMILES = COc1ccc(Nc2nnc(NCC(=O)Nc3c(F)cccc3F)s2)cc1; target = CD28, with CD80 (Homo sapiens, UniProt P10747); test = CD28–CD80 binding, inhibitor, competitive ELISA; conditions = together with: biotinylated CD80; IC50 = 71.6 µM
SMILES = NC(=O)c1cn(-c2ccc(F)cc2)c2ccc(CN3CCN(CC(F)(F)F)CC3)cc2c1=O; target = Grm2 (Rattus norvegicus, UniProt P31421); test = calcium mobilization, negative allosteric modulator; IC50 = 0.612 µM
SMILES = N[C@@H](c1nc2cc(-c3ccncc3F)sc2c(=O)[nH]1)C1CC1; target = CDC7 (Homo sapiens, UniProt O00311); test = enzyme activity, inhibitor; IC50 = 0.612 ± 0.0428 µM
SMILES = COc1ccc2[nH]cc(CCc3ccccc3)c2c1; target = IDO1; test = enzyme activity, inhibitor; IC50 = 5.4 µM
SMILES = O=C(CN1C(=O)C=CC1=O)N1CCN(c2cc(N3CCCC3)nc(N3CCCC3)n2)CC1; target = Caspase-1 (CASP1, Homo sapiens, UniProt P29466); test = inhibitor; conditions = 15 min preincubation; IC50 = 0.467 ± 0.116 µM
SMILES = Cc1ncsc1-c1ccc(CNC(=O)[C@@H]2C[C@@H](O)CN2C(=O)c2cccc(C#N)c2)cc1; target = von Hippel-Lindau disease tumor suppressor, with elongin B, C (VHL, Homo sapiens, UniProt P40337); test = binding, fluorescence polarization; conditions = 1% DMSO, together with: FAM-HIF1α peptide tracer; IC50 = 11 ± 0.8 µM
SMILES = COCOc1ccc(/C=C/C(=O)C(CCC(=O)OC)C(=O)/C=C/c2ccc(OCOC)c(OC(F)(F)F)c2)cc1OC(F)(F)F; target = Amyloid-beta precursor protein, Aβ aggregates (APP, Homo sapiens, UniProt P05067); test = binding, thioflavin T competition; IC50 = 4.71 µM
SMILES = O=C(Nc1ccc(-c2nc3ccc(NC(=O)C4CCCCC4)cc3s2)cc1)C1CCCCC1; target = SYK with FCER1G; test = protein binding, inhibitor, TR-FRET; IC50 = > 20 µM
SMILES = O=C(CCCn1c(=S)[nH]c2ccccc2c1=O)N1CCN(c2ccccc2O)CC1; target = ESR1; test = reporter gene, antagonist; test system = HEC-1 cells transfected with ERα; conditions = together with: estradiol 1 nM; IC50 = 4.8 µM
SMILES = O=C(NO)c1ccccc1F; target = HDAC6 (Homo sapiens, UniProt Q9UBN7); test = enzyme activity, inhibitor, electrophoretic mobility shift; conditions = together with: FAM-RHKK(Ac)-NH2 1 µM; IC50 = 3.02 µM
SMILES = CN1CCC[C@@H]1C(=O)N[C@@H](Cc1ccccc1)B(O)O; target = Proteasome subunit beta type-10 / Proteasome subunit beta type-3 (Homo sapiens, UniProt P40306+P49720); test = β2i enzyme activity, inhibitor; conditions = together with: Ac-KQL-AMC; IC50 = > 10 µM
SMILES = COc1ccc(-c2nc(S(C)(=O)=O)nn2-c2ccc(OC)cc2)cc1; target = Prostaglandin G/H synthase 1 (Macaca mulatta, UniProt F6S984); test = thromboxane B2 production, inhibitor, enzyme immunoassay; test system = monkey whole blood; IC50 = 0.011 ± 0.001 µM
SMILES = CC(C)CNC(=O)CSc1nc2ccc(NC(=O)CSc3ccccc3C(C)(C)C)cc2s1; target = ESR1; test = reporter gene, antagonist; test system = HEC-1 transfected ERα luciferase reporter; IC50 = 5.8 µM
SMILES = CC(=O)Nc1cc(Nc2cc(NC3CC3)n3ncc(C#N)c3n2)ccc1N(C)CCN(C)C; target = CSNK2A2 (Homo sapiens, UniProt P19784); test = target engagement, NanoBRET; test system = HEK293; IC50 = 0.0013 µM
SMILES = COc1ccc(-c2nc(Nc3nc4ccccc4o3)ncc2C#N)cc1F; target = Grm5 (Rattus norvegicus, UniProt P31424); test = calcium mobilization, negative allosteric modulator; conditions = together with: glutamate EC80; IC50 = 1.06 ± 0.696 µM
SMILES = COCC#Cc1cc(-c2nn(-c3nc(C(=O)O)cs3)c(CC3CC3)c2Cc2ccc(S(N)(=O)=O)c(F)c2)ccc1F; target = LDHA (Homo sapiens, UniProt P00338); test = enzyme activity, inhibitor; IC50 = 0.005 µM
SMILES = COc1ccc2c(c1)S(=O)(=O)N(CCCCCc1ccccc1)C(=O)O2; target = Patatin-like phospholipase domain-containing protein 4 (PNPLA4, Homo sapiens, UniProt P41247); test = enzyme activity, inhibitor, gel-based ABPP; test system = membrane fraction of overexpressing HEK cells; IC50 = 1.8 µM
SMILES = N#Cc1ccccc1NC(=O)CSc1nc(-c2ccccc2)cc(C(F)(F)F)c1C#N; target = TAAR1 (Homo sapiens, UniProt Q96RJ0); IC50 = > 10 µM
SMILES = O=C(c1ccc(O)c(C(F)(F)F)c1)N1Cc2ccccc2C1; target = HSP90AB1 (Homo sapiens, UniProt P08238); test = binding, fluorescence polarization; conditions = together with: FITC-geldanamycin tracer; IC50 = > 100 µM
SMILES = COc1ccc2[nH]cc(CCc3ccncc3)c2c1; target = Amyloid-beta precursor protein, amyloid-beta peptide (APP, Homo sapiens, UniProt P05067); test = Aβ42 oligomerisation, ELISA; IC50 = > 20 µM
SMILES = COc1cc(C=C(C(=O)/C=C/c2cc(OC)c(OC)c(OC)c2)C(=O)/C=C/c2cc(OC)c(OC)c(OC)c2)cc(Br)c1O; target = BAP1 (Homo sapiens, UniProt Q92560); test = inhibitor; conditions = together with: Ub-AMC substrate; IC50 = 0.2 ± 0.0273 µM
SMILES = COc1ccc2[nH]cc(/C=C/c3cccc(F)c3)c2c1; target = IDO1; test = enzyme activity, inhibitor; IC50 = 3.1 µM
SMILES = Clc1ccc(C2(c3ccc(-c4ccnc5ccccc45)cc3)CCNCC2)cc1; target = LATS1 (Homo sapiens, UniProt O95835); test = kinase activity, inhibitor, radiometric HotSpot; conditions = together with: ATP 10 µM; IC50 = 0.55 µM
SMILES = CC(=NNC(N)=NO)c1ccc(NC(=O)c2cc3cccc([N+](=O)[O-])c3[nH]2)cc1; target = CHEK1 (Homo sapiens, UniProt O14757); test = kinase activity, inhibitor, IMAP fluorescence polarisation; conditions = 60 min; IC50 = > 100 µM
SMILES = COc1cc(-c2nc3sc4cc(-c5ccc(O)cc5)ccc4c3c(=O)[nH]2)ccc1OCC(=O)O; target = FGFR1; test = kinase activity, inhibitor, AlphaScreen; conditions = together with: biotinylated peptide substrate; IC50 = 6 µM
SMILES = O=[N+]([O-])c1cc(CN2CCN(c3ccccc3F)CC2)ccc1Cl; target = SEC14 (Saccharomyces cerevisiae, UniProt P24280); test = phosphatidylinositol transfer, inhibitor; conditions = Sec14 287 nM, together with: [3H]-phosphatidylinositol; IC50 = 5.68 ± 0.5 µM
SMILES = COc1cc2c(cc1OC)C(=O)/C(=C/c1ccccc1OC(=O)N(c1ccccc1)c1ccccc1)C2; target = Cocaine esterase (CES2, Homo sapiens, UniProt O00748); test = inhibitor; conditions = 3 min preincubation, together with: fluorescein diacetate; IC50 = 0.901 ± 0.127 µM
SMILES = CC(C)NC(=O)CSc1nc2ccc(NC(=O)CSc3ccc(Cl)cc3)cc2s1; target = ESR1; test = reporter gene, antagonist; test system = HEC-1 transfected ERα luciferase reporter; IC50 = 20 to 50 µM
SMILES = O=C(O)c1cc(C(=O)N2CCC[C@H]2C(=O)O)cc([C@H]2CCN[C@@H]2C(=O)O)c1; target = Glutamate receptor ionotropic, NMDA 2C, with GluN1 (Rattus norvegicus, UniProt Q00961); test = ion current, antagonist, two-electrode voltage clamp; test system = Xenopus oocytes; conditions = GluN1/GluN2C, together with: glycine 100 µM and glutamate 1 µM; IC50 = 4.5 ± 0.22 µM
SMILES = O=C(CCCCCn1c(=S)[nH]c2ccccc2c1=O)N1CCN(c2ccc(O)cc2)CC1; target = ESR1; test = reporter gene, coactivator binding inhibitor, luciferase reporter; test system = HEC-1 cells transfected with ERα; conditions = partial inhibition, together with: estradiol 1 nM; IC50 = 10.8 µM
SMILES = COc1ccc(-n2nc3c(=O)[nH]nc(N)c3c2-c2oc3ccc(C)cc3c2C)cc1; target = FGFR1; test = kinase activity, inhibitor, ELISA; IC50 = 0.0366 ± 0.0077 µM
SMILES = COc1ccc(NC(=O)N[C@H](Cc2ccc(C#N)cc2)C(=O)NCC2(c3ccc(O)cc3)CC2)cc1; target = FPR2 (Homo sapiens, UniProt P25090); test = calcium mobilization; test system = FPR2-transfected HL-60; conditions = desensitization pretreatment, together with: WKYMVM 5 nM; IC50 = 29.5 ± 2.6 µM
SMILES = OC[C@H]1[C@@H](O)[C@H](O)[C@@H](O)CN1CCCCCOCc1ccc(Br)cc1; target = Beta-glucosidase (GBA2, Homo sapiens, UniProt Q9HCG7); test = inhibitor, 4-methylumbelliferyl glucoside; test system = HEK293T overexpressing GBA2 homogenate; IC50 = 0.00025 µM
SMILES = O=C(Nc1ccc(-c2nc3ccccc3s2)cc1)C1CCOCC1; target = SYK with FCER1G; test = protein binding, inhibitor, TR-FRET; IC50 = > 100 µM
SMILES = O=C(OC(C(F)(F)F)C(F)(F)F)N1Cc2ccc(OCC(F)F)cc2C1; target = ABHD6 (Homo sapiens, UniProt Q9BV23); test = inhibitor, fluorescence; IC50 = 0.006 ± 0.0003 µM
SMILES = Fc1cnccc1-c1ccc(C2(c3ccc(Cl)cc3)CCNCC2)cc1; target = AKT1 (Homo sapiens, UniProt P31749); test = kinase activity, inhibitor, radiometric HotSpot; conditions = together with: ATP 10 µM; IC50 = 0.08 µM
SMILES = CN1CC[C@H](c2c(O)cc(O)c3c(=O)cc(-c4ccccc4F)oc23)[C@H](O)C1; target = Aurora kinase A (AURKA, Homo sapiens, UniProt O14965); conditions = ATP at Km; IC50 = > 1 µM
SMILES = CC(C)=CCC/C(C)=C/CC/C(C)=C/CC/C(C)=C/CC1=C(C)C(=O)c2ccccc2C1=O; target = TGM2 (Homo sapiens, UniProt P21980); test = enzyme activity, inhibitor, biotin-pentylamine incorporation; conditions = 10 mM DTT; IC50 = > 50 µM
SMILES = C=CC(=O)Nc1cccc(Nc2nc3c(-c4ccccc4)cccn3n2)c1; target = VPS4B (Homo sapiens, UniProt O75351, D135C); test = ATPase activity, inhibitor; conditions = 30 min, together with: VTA1 stimulation, 1 mM ATP; IC50 = 0.41 µM
